Published values of several laboratories.
Parts stem from different laboratories: compare values within a part only.

Series 1 — method: RNA Bind-n-Seq; molecule type: RNA; sample: in vitro; concentration: 365 nM; reference: no-protein control; reading: higher = stronger binding
Target: RNA binding protein fox-1 homolog 2, RRM domain, GST-SBP tag (RBFOX2, Homo sapiens, UniProt O43251-10, residues 100-194)
Notes: natural RNA segment, single round, ends assumed
All sequences stand within: GGGAGUUCUACAGUCCGACGAUC … UGGAAUUCUCGGGUGCCAA
Target sequence (chain): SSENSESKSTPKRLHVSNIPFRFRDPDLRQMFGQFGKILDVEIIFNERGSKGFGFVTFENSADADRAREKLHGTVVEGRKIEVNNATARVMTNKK
| Oligonucleotide | RBNS enrichment (R) |
| --- | --- |
| GUGAACUGGCCAUUCCUUUCGGUGCUGCUGUCCUUUUUGGGGGGGUUCCUGAUUUCUGUAUACAUGUAGCUUUGCCAGAUAUGUACUUAGUAAUAUAAACUGUAUUAAUA | 0.601 |
| UCAGCUGCCUACAGUUUAAUAUGCAGCGUUCACAAAACAGCUGCCAGUGCUACAAUUAAUGAAGCAAAACUUAAUAUGUAAUCACAAUCUAAAUUAGCAUCAAUACUUUG | 0.364 |
| UUCAAGUGAUUCUCCUGCCUCAGCCUCCCAAGUAGCUGGGUUUAUAGGUGCCCGCCACCAGACCCGGCUAAUUUUUUAGUUUUAGUAGAGACGGGGUUUCACCACGUUGG | 0.34 |
| UCCUUCCAUUUGACCUAAUUUAACUGGUGAAAUUUAAAGUGAAUUCAUGGGCUCAUCUUUAAAGCUUUUACUAAAAGAUUUUCAGCUGAAUGGAACUCAUUAGCUGUGUG | 0.413 |
| UGCAGCCAAACCUGAUGACCUGCAUUCAAUUCCUGGGUCCCACGGGACAGAGGGAGAGAGUCCACUACUGAAAGGAACGCUCAAACCUCCUCACACAGGUCCUUGUGCCU | 0.217 |
| UUCCAUCUGCUGUACUAACCAGGAGCCCUCCCAUGGAGAUGCAGCCCCCUGUCUCUCCUCAGCAGUCUGAGUGCAACCCCGUCGGUGCUCUGCAGGAGCUGGUGGUGCAA | 0.385 |
| CCAUGUCUGGGUUCUCCAUGCCCAUCAGUCUCUGCAGUUUCUCUACCUGCCCCCAGAGCUGAGGCCAUCUGCAAGCCCCUGCCCAUGGCCCAAUGGGGAGCCUCCAGCCA | 0.361 |
| UGUGCAUUAAGAAAUUUAAGUUUGGGGCUGGAGAAAUGGCCCAUCGAUUAAGAAAGAGCACUGGUGGCUGCUUUUCCAGAGAUCCUGAGUUCAAUUCCCAGCAACCACAU | 1.21 |
| GACCCUUCCAUCUCUCCUGGGACAGGCAGGAACCAGAGGGACCAGGGCUCAAAUCUUGUACUAUGUGGCUUUGACAGACUACUGGCUCCAUGCUGGGCUCCCGGUUCUCA | 0.308 |
| UGACCUCCCAGGAAGAAAAUAGCUUCUCCUACAGUGAUUCAUGUCCCAGGUCCAGGAAAUCCAAUGUUGGUGAAGGCAGCCACUCUCUUGCUUGUCCCCAAAUCACCUAA | 0.596 |
| UCACCAAGCUGAGGUGUCUGAAGCCUGGAGCUACUGGGACCCCUCCUCUCCUCUAUAGCUAUUAGAUGUGUCAGGACCAAGUUGACCCCAACUUUCAGAACGUCCCUAGC | 0.245 |
| ACAAUGUUAGCUGAAAGCAUGUUUAUUUUUUAAGGAGCUCCUGCUCUUCUGCACAUUUCCAUAUCUAGAGAUGGAUAGUCCUGAACUUGACGUCACACCCACAGGUGAAA | 22.8 |

Series 2 — method: RNA Bind-n-Seq; molecule type: RNA; sample: in vitro; concentration: 20 nM; notes: 6-mer, flanks averaged, single round; with: 150 mM KCl; reference: input library; reading: higher = stronger binding
Target: TAR DNA-binding protein 43, full length, His tag (TARDBP, Homo sapiens, UniProt Q13148, residues 1-414)
| Oligonucleotide | 6-mer enrichment (R) |
| --- | --- |
| AUCGGU | 0.725 |
| GCGACC | 0.889 |
| CGGAUG | 1.36 |
| GGAAAG | 2.15 |
| AUUGCA | 0.629 |
| UCUUGC | 0.611 |
| UCGUCU | 0.579 |
| UGGCCA | 0.897 |
| UAUUGU | 0.654 |
| CUUCUG | 0.588 |
| AUUGAA | 0.663 |
| GUGAUU | 0.8 |
| UCUUGU | 0.637 |
| ACAGGU | 0.868 |
| CCACAA | 0.649 |
| UUAGUA | 0.652 |
| UUUUGC | 0.698 |
| CAGUCA | 0.622 |
| CCGUGC | 0.788 |
| GUGCCG | 1.38 |
| UGACUG | 0.898 |
| CUCUUC | 0.541 |
| AUGCCA | 0.676 |
| UGGGUC | 1.73 |
| UUGCUG | 0.793 |

Series 3 — method: protein-binding microarray; molecule type: double-stranded DNA, one strand shown; sample: in vitro; concentration: 250 nM; notes: 60-bp whole probe; with: salmon DNA 0.4 mg/ml; reference: random background probes; reading: higher = stronger binding; all sequences stand within: GCCTAGCAC … GTCTTGATTCGCTTGACGCTGCTG
Target: Interferon regulatory factor 7, full length, phosphomimetic (IRF7, Homo sapiens, UniProt Q92985, residues 1-503, S101K/S471D/S472D/S475D/S476D/S477D/S483D/S484D/S487D)
Chain of UniProt Q92985 (whole entry, unmodified, looked up): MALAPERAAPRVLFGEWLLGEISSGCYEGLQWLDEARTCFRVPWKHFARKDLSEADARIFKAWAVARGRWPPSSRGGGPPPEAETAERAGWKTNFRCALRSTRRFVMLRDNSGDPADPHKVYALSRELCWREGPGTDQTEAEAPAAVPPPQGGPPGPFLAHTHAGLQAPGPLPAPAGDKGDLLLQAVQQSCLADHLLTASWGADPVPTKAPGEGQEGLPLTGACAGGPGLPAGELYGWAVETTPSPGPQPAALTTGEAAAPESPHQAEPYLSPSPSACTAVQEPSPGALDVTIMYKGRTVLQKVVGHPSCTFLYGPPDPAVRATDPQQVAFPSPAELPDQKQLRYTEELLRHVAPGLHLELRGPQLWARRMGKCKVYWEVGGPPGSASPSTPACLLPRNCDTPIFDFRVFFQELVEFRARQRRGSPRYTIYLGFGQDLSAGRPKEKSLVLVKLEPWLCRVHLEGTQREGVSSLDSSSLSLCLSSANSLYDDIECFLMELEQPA
| Oligonucleotide | log fluorescence |
| --- | --- |
| TCATCTCTGGACTGTGTGACTGTGCTA | 0.0162 z-score |
| GACGGTTTCGGTATAGGGACGTGCTAG | 10.2 z-score |
| TTAGATCTCAGTCTCGATCAGTGCTAG | 0.435 z-score |
| TTAGATTACGGGACTGGATTAGTGCTA | 0.0928 z-score |
| TTAGCTATCGGGACTGGGTTAGTGCTA | -0.503 z-score |
| TTAGATCTCAGTCTCGATGAGTGCTAG | 0.265 z-score |
| CTGTCATCATCGTTCCCAGCGTGCTAG | 0.474 z-score |
| GACCGACTGCTTCTCCTGACGTGCTAG | -0.379 z-score |
| TTAAATATCAGTATCGATTAGTGCTAG | 1.39 z-score |
| TTAGGTTGCGACACTGGGTTAGTGCTA | -0.365 z-score |
| TTAGGTTTCGGTCTTGGTTAGTGCTAG | 8.13 z-score |
| TCAGTTCTTAGCTTGGGACTGTGCTAG | 0.888 z-score |
| TCAGGTCTGTTTCTGATACTGTGCTAG | 0.834 z-score |
| CCAGTTTTGTGTGTGTGTTTGTGCTAG | 0.542 z-score |
| GTAGGTTTCCTTATCCTTTAGTGCTAG | 2.49 z-score |
| GACGGTTTCGGGACTGGGGAGGTGCTA | 4.17 z-score |
| TCATATTTGTTTCCATTACTGTGCTAG | 2.04 z-score |
| TCAAAAATGATTTTTTTACTGTGCTAG | -0.0224 z-score |
| TTAGGACCGGGTATCGGTTAGTGCTAG | 1.7 z-score |
| GACCGTTTCGGTTTCGGGACGTGCTAG | 11 z-score |

Series 4 — method: competition protein-binding microarray; molecule type: double-stranded DNA, one strand shown; sample: in vitro; concentration: 2 µM; with: Cbf1 competitor, 0.05 µM; reading: higher = stronger binding; all sequences stand within: … GTCTTGATTCGCTTGACGCTGCTG
Target: Phosphate system positive regulatory protein PHO4, full length, GST-tagged (PHO4, Saccharomyces cerevisiae, UniProt P07270, residues 1-312)
Notes: whole 60-bp probe, lowest competitor level
Construct (chain): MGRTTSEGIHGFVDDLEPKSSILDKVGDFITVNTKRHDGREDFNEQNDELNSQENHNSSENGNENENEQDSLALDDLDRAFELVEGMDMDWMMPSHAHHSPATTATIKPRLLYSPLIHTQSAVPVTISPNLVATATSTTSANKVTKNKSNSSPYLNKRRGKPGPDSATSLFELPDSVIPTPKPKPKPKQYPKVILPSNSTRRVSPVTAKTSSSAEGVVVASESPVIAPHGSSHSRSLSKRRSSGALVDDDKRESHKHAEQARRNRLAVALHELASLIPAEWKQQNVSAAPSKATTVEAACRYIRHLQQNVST
| Oligonucleotide | fluorescence intensity [a.u.] |
| --- | --- |
| GGTACGAGAATCGAACCCGTGTCCTCACCTTGGAAG | 8340 |
| TTCAACCCTTCCAACGCCGTGACGGGCCCTCCGGAC | 3030 |
| AAATTACTAAGTTGTCACGGTACTTACCCCGTATGA | 4810 |
| CGTCCTAGTGATTGCCTAGTGGGTGCCATGAGGAAG | 6520 |
| TGTTACGTAATAAGCAACGTGCAAACGCATTTTTTG | 13300 |
| TGCGCAACAACTTGCCACGTGTTTTTATGTCTAGAA | 16600 |
| GCCGCCAGGGCCTGGCGCGTGGCCGCCGCTCCTCTT | 7930 |
| GACTTTAGCTGCAACGGCGTGGGTATGCCGCAGCGG | 7800 |
| CGTCCTAGTGATTTTCACGTGATTTCCATGAGGAAG | 9980 |
| TGCGCAACAACTTGATAGGTGGGTGTATGTCTAGAA | 4780 |
| AGTTGGCGATCAAAGCACGTGATGGGTTTTCCAAAT | 16800 |
| CGGGGTTAAGTTTGCATCGTGGGTGGCTTGCAGCAG | 10000 |
| AGCAACGTTTAGTGAACCGTGACAAGTTTGGCCAGC | 5670 |
| CGGGGTTAAGTTTTTCACGTGCTCTGCTTGCAGCAG | 13300 |
| CTTTCCCGATCTTGCCGCGTGGGTGTAGCACATTTG | 11900 |
| CCAGGCACCGAGGTCCATGTGAAAGGAGGCTTTGCG | 5640 |
| TGCGCAACAACTTGAGATGTGGGTGTATGTCTAGAA | 4750 |
| CTAACGAAGGTTTGGAAAGTGGGTGACAAGCCAAGT | 3480 |
| GAATCTCCGCATATACATGTGGTCGGCATCGTTGTC | 10800 |
| AGTATCCTCGACCTACACGTCTTCACCATCGGCTTC | 4960 |
| CTAACGAAGGTTTTTCACGTGTAGTACAAGCCAAGT | 11300 |
| TGAAGACCCACCCATCACGTCTATCCCGCCAGAGTC | 4190 |
| CTAACGAAGGTTTGTCACGGTACTTACAAGCCAAGT | 3880 |

Repeated from above (series 3):
| Oligonucleotide | log fluorescence |
| --- | --- |
| TCATATTTGTTTCCATTACTGTGCTAG | 2.04 z-score |
| TCAAAAATGATTTTTTTACTGTGCTAG | -0.0224 z-score |
| TTAGGACCGGGTATCGGTTAGTGCTAG | 1.7 z-score |
| GACCGTTTCGGTTTCGGGACGTGCTAG | 11 z-score |
